Measurements of several laboratories.
Protocols differ between the studies behind these lines. Numbers after ± are the reported error.
LCK: Tyrosine-protein kinase Lck (LCK, Homo sapiens, UniProt P06239)
UniProt P06239, sequence (whole entry, looked up): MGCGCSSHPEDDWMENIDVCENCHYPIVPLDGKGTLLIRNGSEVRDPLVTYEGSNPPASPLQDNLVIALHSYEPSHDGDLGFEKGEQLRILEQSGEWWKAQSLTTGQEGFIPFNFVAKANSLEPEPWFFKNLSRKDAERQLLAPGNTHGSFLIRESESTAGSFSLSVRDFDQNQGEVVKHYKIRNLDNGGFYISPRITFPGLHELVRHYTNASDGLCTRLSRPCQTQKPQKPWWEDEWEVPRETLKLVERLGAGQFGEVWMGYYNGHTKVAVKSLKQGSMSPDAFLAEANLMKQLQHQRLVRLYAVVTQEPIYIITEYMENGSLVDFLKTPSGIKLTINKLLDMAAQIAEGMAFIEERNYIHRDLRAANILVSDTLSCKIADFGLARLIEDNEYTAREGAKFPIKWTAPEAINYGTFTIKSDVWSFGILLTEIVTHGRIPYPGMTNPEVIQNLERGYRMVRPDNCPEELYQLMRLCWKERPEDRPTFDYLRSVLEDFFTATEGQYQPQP
FLT3: Receptor-type tyrosine-protein kinase FLT3 (FLT3, Homo sapiens, UniProt P36888)
TRPM8: Transient receptor potential cation channel subfamily M member 8 (TRPM8, Homo sapiens, UniProt Q7Z2W7)
UniProt Q7Z2W7, sequence (whole entry, looked up): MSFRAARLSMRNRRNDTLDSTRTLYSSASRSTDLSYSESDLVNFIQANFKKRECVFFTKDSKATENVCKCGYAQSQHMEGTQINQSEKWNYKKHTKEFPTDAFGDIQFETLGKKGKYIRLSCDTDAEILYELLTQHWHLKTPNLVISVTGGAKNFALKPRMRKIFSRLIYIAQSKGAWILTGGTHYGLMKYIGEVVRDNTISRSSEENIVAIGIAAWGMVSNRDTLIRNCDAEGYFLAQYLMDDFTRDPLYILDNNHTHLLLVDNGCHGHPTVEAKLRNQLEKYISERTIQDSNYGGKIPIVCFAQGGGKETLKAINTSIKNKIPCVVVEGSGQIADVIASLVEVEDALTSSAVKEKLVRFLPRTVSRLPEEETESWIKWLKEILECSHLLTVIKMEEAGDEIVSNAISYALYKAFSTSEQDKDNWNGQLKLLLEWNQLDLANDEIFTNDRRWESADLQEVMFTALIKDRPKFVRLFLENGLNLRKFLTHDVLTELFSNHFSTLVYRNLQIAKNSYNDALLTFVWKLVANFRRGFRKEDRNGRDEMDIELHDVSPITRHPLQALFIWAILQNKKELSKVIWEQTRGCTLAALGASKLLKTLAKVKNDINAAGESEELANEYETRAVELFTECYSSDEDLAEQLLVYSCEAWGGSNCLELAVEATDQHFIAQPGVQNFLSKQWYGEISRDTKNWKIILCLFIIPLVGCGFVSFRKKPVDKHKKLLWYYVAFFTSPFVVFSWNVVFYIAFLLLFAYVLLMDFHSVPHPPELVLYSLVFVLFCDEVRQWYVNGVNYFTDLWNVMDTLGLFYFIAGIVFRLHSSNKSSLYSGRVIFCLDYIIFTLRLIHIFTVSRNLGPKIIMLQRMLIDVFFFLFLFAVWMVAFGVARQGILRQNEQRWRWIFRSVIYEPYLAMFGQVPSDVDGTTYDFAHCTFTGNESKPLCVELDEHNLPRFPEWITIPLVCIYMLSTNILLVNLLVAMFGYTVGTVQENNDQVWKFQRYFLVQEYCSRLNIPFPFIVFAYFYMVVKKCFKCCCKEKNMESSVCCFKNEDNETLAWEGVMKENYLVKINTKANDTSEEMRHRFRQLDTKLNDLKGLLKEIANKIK
UniProt Q5HHB9, sequence (whole entry, looked up): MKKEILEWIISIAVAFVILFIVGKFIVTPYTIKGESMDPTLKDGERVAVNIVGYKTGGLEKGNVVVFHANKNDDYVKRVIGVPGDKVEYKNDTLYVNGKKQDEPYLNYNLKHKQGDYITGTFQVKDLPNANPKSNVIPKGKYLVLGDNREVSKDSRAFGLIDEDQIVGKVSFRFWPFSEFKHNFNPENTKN
UniProt O75460, sequence (whole entry, looked up): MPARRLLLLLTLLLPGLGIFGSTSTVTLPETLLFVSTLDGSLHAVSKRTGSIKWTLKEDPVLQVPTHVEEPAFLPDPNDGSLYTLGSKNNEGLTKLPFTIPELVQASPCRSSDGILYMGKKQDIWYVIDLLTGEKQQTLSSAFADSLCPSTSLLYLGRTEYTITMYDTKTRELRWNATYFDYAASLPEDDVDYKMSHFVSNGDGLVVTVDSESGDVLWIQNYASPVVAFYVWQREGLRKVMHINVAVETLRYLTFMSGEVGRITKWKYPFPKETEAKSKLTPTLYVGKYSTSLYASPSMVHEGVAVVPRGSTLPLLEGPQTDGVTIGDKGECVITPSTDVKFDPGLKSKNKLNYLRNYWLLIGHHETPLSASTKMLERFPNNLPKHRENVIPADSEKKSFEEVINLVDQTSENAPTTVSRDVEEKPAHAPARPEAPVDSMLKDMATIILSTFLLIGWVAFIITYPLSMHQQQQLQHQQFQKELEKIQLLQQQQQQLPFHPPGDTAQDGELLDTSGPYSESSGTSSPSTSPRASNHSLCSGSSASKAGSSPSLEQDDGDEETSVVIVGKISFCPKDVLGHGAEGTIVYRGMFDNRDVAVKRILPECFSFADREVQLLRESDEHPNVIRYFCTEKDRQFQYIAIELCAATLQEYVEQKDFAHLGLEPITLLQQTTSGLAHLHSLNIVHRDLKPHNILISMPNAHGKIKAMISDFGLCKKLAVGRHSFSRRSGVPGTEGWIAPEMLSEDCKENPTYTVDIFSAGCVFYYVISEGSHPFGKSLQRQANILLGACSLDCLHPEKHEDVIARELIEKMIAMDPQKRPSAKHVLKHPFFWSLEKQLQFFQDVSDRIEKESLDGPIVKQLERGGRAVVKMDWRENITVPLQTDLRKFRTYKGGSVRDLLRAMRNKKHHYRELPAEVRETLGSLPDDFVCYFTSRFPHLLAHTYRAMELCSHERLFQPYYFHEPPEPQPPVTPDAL
UniProt Q8N5S9, sequence (whole entry, looked up): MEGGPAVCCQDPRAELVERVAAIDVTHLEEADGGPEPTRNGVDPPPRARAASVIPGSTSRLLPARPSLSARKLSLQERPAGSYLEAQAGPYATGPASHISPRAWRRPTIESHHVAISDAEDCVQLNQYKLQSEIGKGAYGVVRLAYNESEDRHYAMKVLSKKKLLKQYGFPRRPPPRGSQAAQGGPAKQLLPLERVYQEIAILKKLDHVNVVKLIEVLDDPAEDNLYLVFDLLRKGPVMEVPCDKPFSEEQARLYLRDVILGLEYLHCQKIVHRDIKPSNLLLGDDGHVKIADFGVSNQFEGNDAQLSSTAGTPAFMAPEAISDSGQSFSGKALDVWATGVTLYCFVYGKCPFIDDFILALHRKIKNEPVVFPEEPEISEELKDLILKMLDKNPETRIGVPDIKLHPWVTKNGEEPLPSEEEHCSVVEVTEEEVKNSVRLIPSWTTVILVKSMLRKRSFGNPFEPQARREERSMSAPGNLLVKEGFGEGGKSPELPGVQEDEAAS

For C=CC(=O)N1CCC[C@@H](n2nc(-c3ccc(Oc4ccccc4)cc3)c3c(N)ncnc32)C1, the remaining activity was 103% (LCK; 0.1 µM).
COc1ccc(F)cc1C(=O)NCc1ccc(-c2nn([C@@H](C)C(F)(F)F)c(N)c2C(N)=O)cc1 has a remaining activity of 76.7 ± 0.1% (LCK; kinase activity, inhibitor, HotSpot radiometric; 100 nM, added: ATP 10 µM).
The remaining activity of COc1cc(Nc2ncc3c(n2)-c2ccc(Cl)cc2C(c2c(F)cccc2OC)=NC3)ccc1C(=O)O is reported as 106% (AKT1; kinase activity; 1 µM).
For COc1cc(F)ccc1-c1ncnc(Nc2cccc(C[S@](C)(=N)=O)c2)n1, the remaining activity was 36% (FLT3; kinase activity; 10 µM, added: 10 µM ATP).
The remaining activity of Cn1nc2c3c(cccc31)C(=O)c1ccccc1-2 is reported as 98.2 ± 7.65% (TRPM8; antagonist; HEK293; 5 µM; relative to: control).
With Cc1cc(Nc2cc(N3CCN(C)CC3)nc(Sc3ccc(NC(=O)C4CC4)cc3)n2)[nH]n1 the remaining activity was 51% (FLT3; kinase activity; 0.03 µM; relative to: control).
With O=C1NC(=O)c2c1c1c3ccccc3[nH]c1c1[nH]c3cc(Br)ccc3c21 the remaining activity was 96.4 ± 11% (TRPM8; antagonist; HEK293; 5 µM; relative to: control).
The remaining activity of O=C(Nc1ccc(C(=O)Nc2ccccc2)cc1)Nc1ccc(Cl)c(C(F)(F)F)c1 is reported as 99.4% (Signal peptidase IB (spsB, Staphylococcus aureus, UniProt Q5HHB9); peptidase activity, activator, FRET peptide cleavage; Staphylococcus aureus, membranes; 100 µM; relative to: DMSO).
With Cc1nc2cc3nc(-c4cccs4)cnc3cc2n1C the remaining activity was 82.7 ± 8.2% (TRPM8; antagonist; HEK293; 5 µM; relative to: control).
For O=C(O)c1ccc(Nc2ncc3c(n2)-c2ccc(Cl)cc2C(c2c(F)cccc2F)=NC3)cc1, the remaining activity was 110% (human PDGFRα(h); kinase activity; 1 µM).
With CC(=O)O/N=C1/C(c2c(O)[nH]c3cc(Br)ccc23)=Nc2ccccc21 the remaining activity was 96.9 ± 9.41% (TRPM8; antagonist; HEK293; 5 µM; relative to: control).
The remaining activity of O=C(NC1CCC1)c1ccc2nc(-c3cccc(NS(=O)(=O)NCCN4CCCCC4)c3)cn2c1 is reported as 100% (ERN1 (Homo sapiens, UniProt O75460); enzyme activity; 10 µM).
The remaining activity of COc1cc(-c2cncc3c2CN(C)Cc2cc(N4CCNCC4)ccc2-3)cc(OC)c1OC is reported as 107% (CAMKK1 (Homo sapiens, UniProt Q8N5S9); kinase activity; 1 µM, human enzyme, added: ATP 10 µM; relative to: DMSO control).

Excerpt of the above:
With Cc1cc(Nc2cc(N3CCN(C)CC3)nc(Sc3ccc(NC(=O)C4CC4)cc3)n2)[nH]n1 the remaining activity was 51% (FLT3; kinase activity; 0.03 µM; relative to: control).
With O=C1NC(=O)c2c1c1c3ccccc3[nH]c1c1[nH]c3cc(Br)ccc3c21 the remaining activity was 96.4 ± 11% (TRPM8; antagonist; HEK293; 5 µM; relative to: control).
